Published values from different studies.
Every numbered part comes from another study and shows a few of its results, in no order.
Chain of UniProt P25021 (whole entry, looked up): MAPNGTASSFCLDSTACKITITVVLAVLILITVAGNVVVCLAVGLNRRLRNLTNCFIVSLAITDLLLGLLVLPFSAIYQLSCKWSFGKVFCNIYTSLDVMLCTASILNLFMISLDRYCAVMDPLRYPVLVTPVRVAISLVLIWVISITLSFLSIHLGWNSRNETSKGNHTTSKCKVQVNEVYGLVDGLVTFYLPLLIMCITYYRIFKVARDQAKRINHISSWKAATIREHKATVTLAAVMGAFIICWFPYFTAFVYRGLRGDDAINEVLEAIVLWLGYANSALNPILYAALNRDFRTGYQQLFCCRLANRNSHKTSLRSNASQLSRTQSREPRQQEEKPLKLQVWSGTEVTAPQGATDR

Study 1 — method: RNAcompete; molecule type: RNA; medium: in vitro; tested at: 20 nM; notes: 7-mer, probes averaged, single round; reference: mean of 7-mers; reading: higher = stronger binding
Target: PABPC1L2, full length, GST fusion (mouse, UniProt A0ABA7IW68)
Target sequence (chain): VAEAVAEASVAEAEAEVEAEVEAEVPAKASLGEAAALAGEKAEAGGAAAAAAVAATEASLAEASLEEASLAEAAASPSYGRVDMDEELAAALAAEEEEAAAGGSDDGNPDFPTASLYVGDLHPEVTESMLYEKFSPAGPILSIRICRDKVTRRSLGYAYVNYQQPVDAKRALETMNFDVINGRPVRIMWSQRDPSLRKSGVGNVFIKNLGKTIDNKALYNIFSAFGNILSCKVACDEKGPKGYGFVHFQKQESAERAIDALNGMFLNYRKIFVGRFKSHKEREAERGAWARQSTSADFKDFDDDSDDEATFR
| Sequence | 7-mer Z-score |
| --- | --- |
| AAGAACC | 0.289 |
| GCACCAA | 0.138 |
| UCCUAUG | -0.32 |
| CUUUAGG | 0.115 |
| GGCGGAC | 0.253 |
| UGGAGGU | 0.037 |
| UAAAGCC | 0.298 |
| UAGUAGG | -0.199 |

Study 2 — method: aptamer microarray, sandwich; molecule type: DNA with 2'F-ANA; medium: in vitro; tested at: 200 nM; added: Cy3 exosite-II aptamer, 400 nM; reading: higher = stronger binding; sequence: GGTTGGTGTGGTTGG
Target: Prothrombin, mature alpha-thrombin (F2, Homo sapiens, UniProt P00734)
Notes: whole 15-mer aptamer, many near background
| Modification | mean fluorescence intensity [a.u.] |
| --- | --- |
| 2'F-ANA at 1 8 9 11 13 14 | 52.9 |
| 2'F-ANA at 1 3 4 5 7 9 11 15 | 58.8 |
| 2'F-ANA at 2 4 5 7 8 9 10 12 14 | 47.6 |
| 2'F-ANA at 2 3 5 7 8 10 14 15 | 50.7 |
| 2'F-ANA at 1 2 7 8 14 15 | 66.1 |
| 2'F-ANA at 2 3 5 6 8 9 13 | 75.3 |
| 2'F-ANA at 1 3 7 8 10 13 15 | 78.5 |
| 2'F-ANA at 1 2 7 8 10 12 13 14 | 51.2 |

Study 3 — effect on: enzyme activity; action: inhibitor; tested at: 0.5 µM; reference: control
Target: RAC-gamma serine/threonine-protein kinase (AKT3, Homo sapiens, UniProt Q9Y243)
Chain of UniProt Q9Y243 (whole entry, looked up): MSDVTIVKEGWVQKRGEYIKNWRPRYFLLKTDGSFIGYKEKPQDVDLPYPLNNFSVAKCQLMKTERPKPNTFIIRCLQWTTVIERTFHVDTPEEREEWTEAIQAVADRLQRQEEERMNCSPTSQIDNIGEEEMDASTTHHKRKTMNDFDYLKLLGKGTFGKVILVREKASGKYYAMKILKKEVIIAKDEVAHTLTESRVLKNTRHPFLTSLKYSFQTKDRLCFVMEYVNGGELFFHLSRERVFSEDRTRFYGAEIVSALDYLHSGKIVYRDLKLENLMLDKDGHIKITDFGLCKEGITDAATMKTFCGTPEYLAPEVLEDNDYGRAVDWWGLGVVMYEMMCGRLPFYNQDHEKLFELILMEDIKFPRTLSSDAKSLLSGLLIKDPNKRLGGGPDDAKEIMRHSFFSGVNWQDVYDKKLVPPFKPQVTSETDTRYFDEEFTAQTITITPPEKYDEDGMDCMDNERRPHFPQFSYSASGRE
| Compound | remaining activity |
| --- | --- |
| O=C1NC(=O)C(c2cn(CCCn3ccnc3)c3ccccc23)=C1Nc1ccccc1 | 71% |
| COc1ccc(CNC(=O)Nc2ncc([N+](=O)[O-])s2)cc1 | 95.9% |
| Nc1ccc2ncnc(NCCc3ccc(Oc4ccccc4)cc3)c2c1 | 104% |
| NCCNc1ncc(C(N)=O)c(Nc2cccc(C(F)(F)F)c2)n1 | 88.9% |
| O=C(CCCc1ccc(-c2ccccc2F)cc1)Nc1ccc(O)cc1 | 111% |
| Cc1nc(-c2ccccc2)c(-c2ccncc2)o1 | 106% |
| CO[C@H]1C[C@@H]2CC[C@@H](C)[C@@](O)(O2)C(=O)C(=O)N2CCCC[C@H]2C(=O)O[C@H]([C@H](C)C[C@@H]2CC[C@@H](O)[C@H](OC)C2)CC(=O)[C@H](C)/C=C(\C)[C@@H](O)[C@@H](OC)C(=O)[C@H](C)C[C@H](C)/C=C/C=C/C=C/1C | 97.8% |

Other studies, line by line
| SMILES | target or system | test | conditions | scale | measurement | value |
| --- | --- | --- | --- | --- | --- | --- |
| CCC(=O)N[C@H]1CC[C@@H](C(=O)N(C)c2ccc(-c3nc4ccccc4o3)cc2)C1 | patient-derived normal-adjacent epithelium organoids | – | 1 µM | reference: DMSO control | viability | 52% |
| C[C@@H](NC(=O)Nc1cc2[nH]ncc2c(CO)n1)c1ccccc1 | Histamine H2 receptor (HRH2, Homo sapiens, UniProt P25021) | cell-free assay | 10 µM | – | inhibition | 11.8% |

Repeated from above (study 1):
| Sequence | 7-mer Z-score |
| --- | --- |
| GCACCAA | 0.138 |
| UCCUAUG | -0.32 |
